Published values gathered from unrelated publications.
Every numbered part comes from another study and shows a few of its results, in no order. “And” joins repeats or separate records; there may be more than shown.
Sequence of UniProt P00519 (whole entry, unmodified, looked up): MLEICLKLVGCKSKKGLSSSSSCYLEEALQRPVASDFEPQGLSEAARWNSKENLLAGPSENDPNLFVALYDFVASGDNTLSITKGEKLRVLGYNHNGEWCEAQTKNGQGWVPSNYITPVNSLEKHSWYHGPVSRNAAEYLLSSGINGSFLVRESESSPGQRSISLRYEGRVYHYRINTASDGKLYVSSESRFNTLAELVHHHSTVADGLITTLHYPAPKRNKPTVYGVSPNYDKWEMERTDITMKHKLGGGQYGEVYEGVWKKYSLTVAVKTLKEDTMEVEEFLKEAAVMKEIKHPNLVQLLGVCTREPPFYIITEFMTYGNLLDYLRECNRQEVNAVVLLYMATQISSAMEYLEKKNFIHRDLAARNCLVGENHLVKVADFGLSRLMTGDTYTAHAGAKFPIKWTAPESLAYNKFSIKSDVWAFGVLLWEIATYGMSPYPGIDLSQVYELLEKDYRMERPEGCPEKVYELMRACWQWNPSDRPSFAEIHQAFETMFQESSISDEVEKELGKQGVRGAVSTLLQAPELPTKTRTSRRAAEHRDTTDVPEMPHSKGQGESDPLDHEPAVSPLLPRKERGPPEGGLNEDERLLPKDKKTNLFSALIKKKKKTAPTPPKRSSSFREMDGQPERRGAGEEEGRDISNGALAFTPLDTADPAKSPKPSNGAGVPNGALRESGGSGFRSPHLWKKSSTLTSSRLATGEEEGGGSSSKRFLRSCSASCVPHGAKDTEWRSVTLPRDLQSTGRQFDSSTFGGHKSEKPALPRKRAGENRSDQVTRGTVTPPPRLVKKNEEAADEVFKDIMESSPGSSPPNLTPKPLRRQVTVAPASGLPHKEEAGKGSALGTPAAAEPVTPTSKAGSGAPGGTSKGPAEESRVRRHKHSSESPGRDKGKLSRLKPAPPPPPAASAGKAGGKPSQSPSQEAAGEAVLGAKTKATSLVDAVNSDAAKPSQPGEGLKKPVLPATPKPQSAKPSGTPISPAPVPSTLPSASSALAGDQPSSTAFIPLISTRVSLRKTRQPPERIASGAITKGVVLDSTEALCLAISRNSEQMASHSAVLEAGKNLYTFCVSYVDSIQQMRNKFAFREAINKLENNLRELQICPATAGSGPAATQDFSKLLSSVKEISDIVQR
Sequence of UniProt P51812 (whole entry, looked up): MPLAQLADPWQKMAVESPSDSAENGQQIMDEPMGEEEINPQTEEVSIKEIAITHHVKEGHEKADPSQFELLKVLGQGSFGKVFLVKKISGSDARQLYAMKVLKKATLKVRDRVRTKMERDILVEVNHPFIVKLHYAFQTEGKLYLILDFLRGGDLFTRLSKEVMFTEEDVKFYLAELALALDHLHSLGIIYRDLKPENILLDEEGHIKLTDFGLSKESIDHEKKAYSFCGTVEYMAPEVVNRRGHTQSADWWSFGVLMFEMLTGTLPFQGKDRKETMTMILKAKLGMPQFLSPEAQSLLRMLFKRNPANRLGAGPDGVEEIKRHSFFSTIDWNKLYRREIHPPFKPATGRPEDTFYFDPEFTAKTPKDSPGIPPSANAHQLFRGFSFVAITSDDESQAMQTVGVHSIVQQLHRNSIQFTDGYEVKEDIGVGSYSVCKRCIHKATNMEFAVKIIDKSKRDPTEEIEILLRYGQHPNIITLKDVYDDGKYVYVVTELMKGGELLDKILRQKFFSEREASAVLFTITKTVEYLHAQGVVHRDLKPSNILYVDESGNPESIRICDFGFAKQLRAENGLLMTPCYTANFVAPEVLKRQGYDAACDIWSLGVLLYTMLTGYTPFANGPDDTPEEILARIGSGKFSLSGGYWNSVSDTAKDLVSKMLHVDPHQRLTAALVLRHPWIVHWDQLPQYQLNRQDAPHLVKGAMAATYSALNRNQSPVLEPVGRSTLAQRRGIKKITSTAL
Sequence of UniProt Q9BRS2 (whole entry, looked up): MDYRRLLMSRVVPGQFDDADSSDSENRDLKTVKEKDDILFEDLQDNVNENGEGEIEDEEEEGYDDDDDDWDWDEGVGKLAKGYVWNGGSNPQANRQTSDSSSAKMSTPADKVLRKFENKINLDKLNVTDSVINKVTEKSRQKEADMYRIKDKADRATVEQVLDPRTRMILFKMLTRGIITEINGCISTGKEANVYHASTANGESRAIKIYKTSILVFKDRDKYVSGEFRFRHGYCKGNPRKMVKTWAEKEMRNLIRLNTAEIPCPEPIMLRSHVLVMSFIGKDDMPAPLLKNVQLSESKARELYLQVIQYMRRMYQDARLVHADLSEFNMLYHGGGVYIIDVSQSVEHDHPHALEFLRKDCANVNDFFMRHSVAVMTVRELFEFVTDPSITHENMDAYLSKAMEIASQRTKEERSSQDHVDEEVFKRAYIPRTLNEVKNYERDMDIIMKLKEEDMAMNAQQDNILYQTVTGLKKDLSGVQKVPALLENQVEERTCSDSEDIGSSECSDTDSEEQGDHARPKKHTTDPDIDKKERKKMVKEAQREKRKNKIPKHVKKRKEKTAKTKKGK

Series 1
Host: mouse
Matrix: microsomes or S9
Tested at: 2 µM
Time: 0.5 h
Structure (SMILES)	remaining compound
CC(C)(C)OC(=O)CCc1nc(Cc2cccc3cccnc23)no1	0.752%
CC(C)[C@@H](Oc1ccc(NC(=O)C2CC=NN2C(=O)C[C@H](N)Cc2cc(F)c(F)cc2F)cc1)C(=O)O (some centres unmarked)	85.4%
CC(=O)Nc1cc(F)c(F)cc1NC(=O)CCNC(=O)C(C)(C)C	80.6%
CCCS(=O)(=O)N1CCN(S(=O)(=O)c2ccc(NC(C)=O)cc2)CC1	0.19%
CCc1ccc(S(=O)(=O)c2nnn3c2[nH]c(=O)c2sccc23)cc1	63.7%

Series 2
SMILES: CCC(=N\O)/C(C)=C/c1ccc(F)cc1
Tested at: 1 µM
target	effect on	technique	setting	relative to	remaining binding [%]
CAMK4 (Homo sapiens, UniProt Q16566)	cell-free assay	competition with immobilised ligand	–	–	69
DAPK1 (Homo sapiens, UniProt P53355)	cell-free assay	competition with immobilised ligand	–	–	100
RIPK2 (Homo sapiens, UniProt O43353)	cell-free assay	competition with immobilised ligand	–	–	91
EPHB6 (Homo sapiens, UniProt O15197)	cell-free assay	competition with immobilised ligand	–	–	95
LYN (Homo sapiens, UniProt P07948)	cell-free assay	competition with immobilised ligand	–	–	87
PKN2 (Homo sapiens, UniProt Q16513)	cell-free assay	competition with immobilised ligand	–	–	80
Ribosomal protein S6 kinase alpha-5, C-terminal kinase domain (RPS6KA5, Homo sapiens, UniProt O75582)	cell-free assay	competition with immobilised ligand	–	–	100
HIPK3 (Homo sapiens, UniProt Q9H422)	cell-free assay	competition with immobilised ligand	–	–	78
FES (Homo sapiens, UniProt P07332)	cell-free assay	competition with immobilised ligand	–	–	73
Tyrosine-protein kinase ABL1, phosphorylated (ABL1, Homo sapiens, UniProt P00519)	cell-free assay	competition with immobilised ligand	–	–	66
PRKACB (Homo sapiens, UniProt P22694)	cell-free assay	competition with immobilised ligand	–	–	89
MAPKAPK5 (Homo sapiens, UniProt Q8IW41)	cell-free assay	competition with immobilised ligand	–	–	91
MAPK4 (Homo sapiens, UniProt P31152)	cell-free assay	competition with immobilised ligand	–	–	75
LATS1 (Homo sapiens, UniProt O95835)	cell-free assay	competition with immobilised ligand	–	–	100
ALK (Homo sapiens, UniProt Q9UM73)	cell-free assay	competition with immobilised ligand	–	–	87
PIK3C3 (Homo sapiens, UniProt Q8NEB9)	cell-free assay	competition with immobilised ligand	–	–	83
Ribosomal protein S6 kinase alpha-3, C-terminal kinase domain (RPS6KA3, Homo sapiens, UniProt P51812)	cell-free assay	competition with immobilised ligand	–	–	100
WNK4 (Homo sapiens, UniProt Q96J92)	cell-free assay	competition with immobilised ligand	–	–	100
STK32A (Homo sapiens, UniProt Q8WU08)	cell-free assay	competition with immobilised ligand	–	–	100
MERTK (Homo sapiens, UniProt Q12866)	cell-free assay	competition with immobilised ligand	–	–	100
PNCK (Homo sapiens, UniProt Q6P2M8)	cell-free assay	competition with immobilised ligand	–	–	82
ABL1 (Homo sapiens, UniProt P00519, E255K)	–	KINOMEscan	E255K mutant, phosphorylated	control	52
MAP4K3 (Homo sapiens, UniProt Q8IVH8)	cell-free assay	competition with immobilised ligand	–	–	100
PIK3CA (Homo sapiens, UniProt P42336, E545A)	cell-free assay	competition with immobilised ligand	–	–	76
CDK9 (Homo sapiens, UniProt P50750)	cell-free assay	competition with immobilised ligand	–	–	93

Series 3
Effect on: AlphaScreen signal
Technique: AlphaScreen counter screen
Matrix: His6 peptide without bromodomain
Tested at: 50 µM
Setting: assay interference check
Structure (SMILES)	inhibition [%]
O=C1NCCc2[nH]c(-c3ccnc(-c4cnc5ccccc5c4)c3)cc21	15.8
CCN1C(=CC(C)=O)Sc2ccc(OC)cc21	8.6
CCN(CCO)CCCOc1ccc2c(Nc3cc(CC(=O)Nc4cccc(F)c4)[nH]n3)ncnc2c1	36.8
COc1ccc(-c2cc3nccn3c(Nc3ncccc3C(N)=O)n2)cc1OC	12.6
Cc1nc(Nc2ncc(C(=O)Nc3c(C)cccc3Cl)s2)cc(N2CCN(CCO)CC2)n1	23
C[S+]([O-])c1ccc(-c2nc(-c3ccncc3)c(-c3ccc(F)cc3)[nH]2)cc1 (centres unmarked)	35.5
O=[N+]([O-])c1ccc(-c2nc(-c3ccc(F)cc3)c(-c3ccncc3)[nH]2)cc1	57

Series 4
Compound: CO[C@@H]1[C@H](N(C)C(=O)c2ccccc2)C[C@H]2O[C@]1(C)n1c3ccccc3c3c4c(c5c6ccccc6n2c5c31)C(=O)NC4
Effect on: enzyme activity
Mode: inhibitor
Tested at: 1 µM
target	inhibition [%]
BMX (Homo sapiens, UniProt P51813)	4
TXK (Homo sapiens, UniProt P42681)	4
TSSK3 (Homo sapiens, UniProt Q96PN8)	41
DSTYK (Homo sapiens, UniProt Q6XUX3)	28
RIOK1 (Homo sapiens, UniProt Q9BRS2)	99

Series 5
Cell line: mouse MPNST tumor cells
Technique: high-content nuclear imaging
Item: cell number
Tested at: 10 µM
Time: 12 h
Setting: mean of 2 replicates
Relative to: plate mean
Reading: higher = more cells
SMILES	nuclei count
CN1CCC[C@@H]1Cc1c[nH]c2ccc(CCS(=O)(=O)c3ccccc3)cc12	3.11 z-score
CC(C)N(CCCCOCC(=O)NS(C)(=O)=O)c1cnc(-c2ccccc2)c(-c2ccccc2)n1	-0.543 z-score
COC(=O)C1=C(C)NC(C)=C(C(=O)OCC(C)C)C1c1ccccc1[N+](=O)[O-] (centres unmarked)	1.06 z-score and 0.855 z-score
CC(C)c1ccc(NC(=O)c2cccs2)c(-c2nc3ccccc3[nH]c2=O)c1	0.0923 z-score
Cc1cc(C)c(-n2ccn3nc(-c4cccnc4)cc23)cc1NC(=O)c1cc(C#N)cc(S(F)(F)(F)(F)F)c1	0.86 z-score

Series 6
Target: DNA polymerase theta, ATPase domain (POLQ, Homo sapiens, UniProt O75417)
Sequence of UniProt O75417 (whole entry, unmodified, looked up): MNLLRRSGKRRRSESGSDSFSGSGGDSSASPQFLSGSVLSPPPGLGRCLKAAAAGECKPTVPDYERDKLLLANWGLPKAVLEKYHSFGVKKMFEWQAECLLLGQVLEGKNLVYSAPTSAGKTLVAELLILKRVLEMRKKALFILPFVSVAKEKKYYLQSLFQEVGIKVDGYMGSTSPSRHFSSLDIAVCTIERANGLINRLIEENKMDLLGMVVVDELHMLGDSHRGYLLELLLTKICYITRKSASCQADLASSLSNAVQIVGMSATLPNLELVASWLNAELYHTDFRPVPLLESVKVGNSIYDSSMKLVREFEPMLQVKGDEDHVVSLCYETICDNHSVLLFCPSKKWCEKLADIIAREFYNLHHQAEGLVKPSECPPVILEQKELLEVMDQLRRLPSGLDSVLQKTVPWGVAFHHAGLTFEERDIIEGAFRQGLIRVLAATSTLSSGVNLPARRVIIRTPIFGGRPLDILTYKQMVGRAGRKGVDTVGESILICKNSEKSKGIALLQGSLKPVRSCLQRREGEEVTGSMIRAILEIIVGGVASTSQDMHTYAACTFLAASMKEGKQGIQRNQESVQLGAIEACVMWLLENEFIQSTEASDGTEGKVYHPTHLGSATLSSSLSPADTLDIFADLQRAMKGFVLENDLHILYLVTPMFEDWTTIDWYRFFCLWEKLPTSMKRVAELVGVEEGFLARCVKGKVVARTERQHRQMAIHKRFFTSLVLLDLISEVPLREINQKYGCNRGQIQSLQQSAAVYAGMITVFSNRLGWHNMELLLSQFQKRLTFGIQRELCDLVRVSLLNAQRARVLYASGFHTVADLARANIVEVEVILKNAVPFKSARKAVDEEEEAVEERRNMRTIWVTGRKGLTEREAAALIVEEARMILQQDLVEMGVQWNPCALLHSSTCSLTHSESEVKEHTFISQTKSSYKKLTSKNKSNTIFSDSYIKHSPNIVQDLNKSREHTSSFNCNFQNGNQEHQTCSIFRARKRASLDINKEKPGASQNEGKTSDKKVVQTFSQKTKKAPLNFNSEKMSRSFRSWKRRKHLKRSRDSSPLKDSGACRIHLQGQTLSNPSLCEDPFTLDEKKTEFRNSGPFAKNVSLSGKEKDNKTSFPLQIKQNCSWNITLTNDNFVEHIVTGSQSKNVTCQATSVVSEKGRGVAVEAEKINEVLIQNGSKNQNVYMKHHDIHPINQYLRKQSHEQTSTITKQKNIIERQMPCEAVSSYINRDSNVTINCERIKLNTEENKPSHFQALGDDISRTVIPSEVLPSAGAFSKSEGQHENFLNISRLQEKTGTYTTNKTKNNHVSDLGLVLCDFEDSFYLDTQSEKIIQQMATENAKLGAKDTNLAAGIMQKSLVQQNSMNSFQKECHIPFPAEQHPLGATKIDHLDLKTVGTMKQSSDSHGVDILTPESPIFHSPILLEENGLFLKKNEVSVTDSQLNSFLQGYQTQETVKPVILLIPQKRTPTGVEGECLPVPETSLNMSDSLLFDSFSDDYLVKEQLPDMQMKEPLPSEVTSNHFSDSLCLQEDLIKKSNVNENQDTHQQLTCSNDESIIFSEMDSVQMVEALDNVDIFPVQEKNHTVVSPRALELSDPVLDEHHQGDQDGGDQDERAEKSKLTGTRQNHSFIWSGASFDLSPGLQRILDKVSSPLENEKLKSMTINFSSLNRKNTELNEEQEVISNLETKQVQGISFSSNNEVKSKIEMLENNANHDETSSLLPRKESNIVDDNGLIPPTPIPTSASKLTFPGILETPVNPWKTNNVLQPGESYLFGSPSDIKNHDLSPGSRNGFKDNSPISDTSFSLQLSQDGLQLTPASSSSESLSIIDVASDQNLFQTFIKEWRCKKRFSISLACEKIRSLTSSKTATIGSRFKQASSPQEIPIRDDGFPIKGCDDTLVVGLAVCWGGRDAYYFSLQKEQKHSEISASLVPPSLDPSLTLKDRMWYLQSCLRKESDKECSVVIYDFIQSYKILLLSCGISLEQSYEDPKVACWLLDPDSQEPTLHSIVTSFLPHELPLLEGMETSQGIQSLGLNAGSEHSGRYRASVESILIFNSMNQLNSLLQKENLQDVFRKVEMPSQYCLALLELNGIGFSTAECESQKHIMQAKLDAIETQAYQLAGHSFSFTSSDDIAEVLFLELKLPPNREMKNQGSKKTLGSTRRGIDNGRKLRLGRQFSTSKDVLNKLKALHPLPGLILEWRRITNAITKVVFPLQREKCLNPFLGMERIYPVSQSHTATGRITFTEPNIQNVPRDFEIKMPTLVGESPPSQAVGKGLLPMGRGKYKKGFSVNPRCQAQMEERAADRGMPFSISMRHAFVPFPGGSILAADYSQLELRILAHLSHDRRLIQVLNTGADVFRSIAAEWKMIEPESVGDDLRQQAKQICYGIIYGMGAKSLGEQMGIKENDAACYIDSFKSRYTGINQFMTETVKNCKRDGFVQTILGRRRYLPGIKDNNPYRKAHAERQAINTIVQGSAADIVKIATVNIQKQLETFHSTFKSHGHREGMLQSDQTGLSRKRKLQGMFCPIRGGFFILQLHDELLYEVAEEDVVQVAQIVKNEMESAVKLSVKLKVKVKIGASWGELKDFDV
Effect on: enzyme activity
Mode: inhibitor
Tested at: 77 µM
Relative to: untreated
Structure (SMILES)	remaining activity
CC(=O)Nc1c(I)c(C(=O)N[C@H]2C(O)O[C@H](CO)[C@@H](O)[C@@H]2O)c(I)c(N(C)C(C)=O)c1I (some centres unmarked)	97.5%
CC(C)(NS(=O)(=O)c1ccc(Oc2ccc(F)cc2)cc1)C(=O)NO	95.6%
N#CC1(c2ccc(NC(=O)c3cccnc3NCc3ccncc3)cc2)CCCC1	103%
C=C1C[C@]23C[C@@]1(O)CC[C@H]2[C@@]12C=C[C@H](O)[C@@](C)(C(=O)O1)[C@H]2[C@@H]3C(=O)O	80.2%
CNC[C@H](O)[C@@H](O)[C@H](O)[C@H](O)CO	102% and 95.8%
CC1(COc2ccc3c(c2)ncn3-c2ccc3cccc(N4CCC(N)CC4)c3n2)COC1	98.8%

A few entries again (series 2):
target	effect on	technique	setting	relative to	remaining binding [%]
DAPK1 (Homo sapiens, UniProt P53355)	cell-free assay	competition with immobilised ligand	–	–	100
RIPK2 (Homo sapiens, UniProt O43353)	cell-free assay	competition with immobilised ligand	–	–	91
EPHB6 (Homo sapiens, UniProt O15197)	cell-free assay	competition with immobilised ligand	–	–	95
LYN (Homo sapiens, UniProt P07948)	cell-free assay	competition with immobilised ligand	–	–	87
